Measurements gathered from unrelated publications.
Every numbered part comes from another study and shows a few of its results, in no order. “And” joins repeats or separate records; there may be more than shown.
Chain of UniProt P42680 (whole entry, looked up): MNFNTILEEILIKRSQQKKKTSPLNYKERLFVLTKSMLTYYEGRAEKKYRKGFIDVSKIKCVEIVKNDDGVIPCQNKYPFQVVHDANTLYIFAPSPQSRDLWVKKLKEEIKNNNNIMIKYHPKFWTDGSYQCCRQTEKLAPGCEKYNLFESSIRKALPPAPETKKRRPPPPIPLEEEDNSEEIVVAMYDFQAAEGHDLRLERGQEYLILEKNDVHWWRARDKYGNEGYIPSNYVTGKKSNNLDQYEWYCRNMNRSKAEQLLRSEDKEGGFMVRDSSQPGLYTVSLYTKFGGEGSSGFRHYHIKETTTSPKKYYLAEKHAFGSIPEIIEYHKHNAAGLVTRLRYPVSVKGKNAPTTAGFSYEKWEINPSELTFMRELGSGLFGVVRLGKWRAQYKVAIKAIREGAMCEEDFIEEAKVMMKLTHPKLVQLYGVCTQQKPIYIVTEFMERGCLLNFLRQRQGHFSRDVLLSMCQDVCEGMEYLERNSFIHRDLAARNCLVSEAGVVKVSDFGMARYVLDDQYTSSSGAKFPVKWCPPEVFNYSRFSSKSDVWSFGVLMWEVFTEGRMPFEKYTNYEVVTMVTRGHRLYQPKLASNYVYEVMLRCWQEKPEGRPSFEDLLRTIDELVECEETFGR
Chain of UniProt P08069 (whole entry, looked up): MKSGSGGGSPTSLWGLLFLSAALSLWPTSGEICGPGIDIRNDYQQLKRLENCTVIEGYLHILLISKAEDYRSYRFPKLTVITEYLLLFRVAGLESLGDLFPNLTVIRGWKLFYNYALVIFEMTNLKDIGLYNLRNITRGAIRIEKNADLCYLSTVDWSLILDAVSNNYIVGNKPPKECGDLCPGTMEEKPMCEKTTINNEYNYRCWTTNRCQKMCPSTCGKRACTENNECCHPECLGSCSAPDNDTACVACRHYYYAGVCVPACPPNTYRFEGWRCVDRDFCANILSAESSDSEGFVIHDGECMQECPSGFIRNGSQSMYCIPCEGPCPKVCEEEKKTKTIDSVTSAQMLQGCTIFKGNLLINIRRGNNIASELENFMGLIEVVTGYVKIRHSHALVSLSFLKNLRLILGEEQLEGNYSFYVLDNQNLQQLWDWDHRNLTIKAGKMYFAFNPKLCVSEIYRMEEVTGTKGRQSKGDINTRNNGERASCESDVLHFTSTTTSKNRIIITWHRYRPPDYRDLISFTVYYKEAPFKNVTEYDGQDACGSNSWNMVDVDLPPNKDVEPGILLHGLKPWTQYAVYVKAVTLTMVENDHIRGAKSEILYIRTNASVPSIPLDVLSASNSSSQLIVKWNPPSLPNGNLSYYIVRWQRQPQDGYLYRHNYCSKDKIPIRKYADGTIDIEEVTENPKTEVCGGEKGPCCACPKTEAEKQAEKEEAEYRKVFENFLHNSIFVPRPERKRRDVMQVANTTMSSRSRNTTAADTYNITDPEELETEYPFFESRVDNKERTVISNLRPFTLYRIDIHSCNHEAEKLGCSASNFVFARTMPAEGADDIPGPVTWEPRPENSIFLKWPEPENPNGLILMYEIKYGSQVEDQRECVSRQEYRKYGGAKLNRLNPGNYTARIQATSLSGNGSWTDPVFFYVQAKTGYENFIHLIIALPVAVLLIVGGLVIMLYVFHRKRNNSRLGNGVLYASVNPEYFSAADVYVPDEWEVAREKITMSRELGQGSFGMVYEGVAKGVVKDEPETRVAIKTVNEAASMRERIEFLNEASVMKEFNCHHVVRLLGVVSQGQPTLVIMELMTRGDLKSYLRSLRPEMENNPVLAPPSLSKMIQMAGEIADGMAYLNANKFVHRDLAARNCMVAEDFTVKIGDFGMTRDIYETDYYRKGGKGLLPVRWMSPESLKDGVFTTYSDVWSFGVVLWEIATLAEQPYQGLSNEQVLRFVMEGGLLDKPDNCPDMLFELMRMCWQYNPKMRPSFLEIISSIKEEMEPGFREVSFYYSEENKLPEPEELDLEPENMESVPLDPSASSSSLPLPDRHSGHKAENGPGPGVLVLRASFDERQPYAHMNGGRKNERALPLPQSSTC
Chain of UniProt Q9HBY8 (whole entry, looked up): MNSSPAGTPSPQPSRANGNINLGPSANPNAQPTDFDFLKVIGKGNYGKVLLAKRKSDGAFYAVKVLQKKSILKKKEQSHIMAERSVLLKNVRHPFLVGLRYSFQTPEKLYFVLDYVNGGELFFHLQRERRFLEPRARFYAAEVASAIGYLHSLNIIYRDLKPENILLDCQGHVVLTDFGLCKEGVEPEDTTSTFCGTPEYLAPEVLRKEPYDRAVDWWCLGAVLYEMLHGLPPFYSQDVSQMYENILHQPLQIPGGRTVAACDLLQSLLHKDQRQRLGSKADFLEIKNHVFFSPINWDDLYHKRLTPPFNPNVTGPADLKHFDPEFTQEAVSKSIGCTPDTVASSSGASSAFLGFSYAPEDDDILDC

Sample 1
Cell line: mouse MPNST tumor cells
Method: high-content nuclear imaging
Refers to: cell number
Tested at: 10 µM
Time: 12 h
Notes: mean of 2 replicates
Relative to: plate mean
Reading: higher = more cells
SMILES	nuclei count
CCCN(CCC)CCc1ccc(OC)c(OCCc2ccccc2)c1	1.84 z-score
CN(C)c1ccc(/C=C2\CCCN=C2c2cccnc2)cc1	0.107 z-score
C=C1CC[C@@]2(O)[C@H]3Cc4ccc(O)c5c4[C@@]2(CCN3CC2CC2)[C@H]1O5	0.283 z-score and 0.618 z-score
CO[C@H]1CC=C2CCN3CCC4=C(CC(=O)OC4)[C@]23C1	1.68 z-score
CCCN1C[C@H](CSC)C[C@@H]2c3cccc4[nH]cc(c34)C[C@H]21	1.09 z-score
CCOC(=O)c1ccc(-c2ccc(OC(=O)N(C)Cc3cccc(-c4ccncc4)c3)cc2)cc1	0.182 z-score
Cc1[nH]c2ccc(Cl)cc2c1C1=CCNCC1	2.77 z-score
C=C(C)C1CCC(C)=CC1c1c(OC)cc(C)cc1OC (centres unmarked)	1.39 z-score

Sample 2
Structure (SMILES): O=C1NC(=O)c2c1c1c3ccccc3n3c1c1c2c2ccccc2n1[C@H]1CC[C@@H]3O1
Observed: enzyme activity
Mode: inhibitor
Tested at: 0.5 µM
Relative to: control
target	remaining activity [%]
MAP3K20 (Homo sapiens, UniProt Q9NYL2)	89.7
TEC (Homo sapiens, UniProt P42680)	142
CLK1 (Homo sapiens, UniProt P49759)	43.1
TYRO3 (Homo sapiens, UniProt Q06418)	55.3
IGF1R (Homo sapiens, UniProt P08069)	63.8
PAK1 (Homo sapiens, UniProt Q13153)	23.6
EPHA2 (Homo sapiens, UniProt P29317)	91.3
RPS6KA3 (Homo sapiens, UniProt P51812)	2.35
SGK2 (Homo sapiens, UniProt Q9HBY8)	18.6

Sample 3
Cell line: HEK-293T
Observed: pseudovirus infection
Method: FDA-approved drug library counter-screen
Organism: VSV pseudotyped with VSV-G
Tested at: 10 µM
Time: 16 h
Relative to: vehicle-treated
SMILES	GFP-positive cells [%]
C[C@H](Cn1cnc2c(N)ncnc21)OCP(=O)(O)O	119
Nc1ccncc1	101
COc1ccc(-n2nc(C(N)=O)c3c2C(=O)N(c2ccc(N4CCCCC4=O)cc2)CC3)cc1	98.9
C[C@]12CC[C@H]3[C@@H](CCC4=CC(=O)CC[C@@H]43)[C@@H]1CC[C@@H]2O	99.5
N[C@@H](Cc1cc(I)c(Oc2ccc(O)c(I)c2)c(I)c1)C(=O)O	136
O=C(O[C@H]1C[N+]2(CCCOc3ccccc3)CCC1CC2)C(O)(c1cccs1)c1cccs1	96.9
O=C(C1CCCCC1)N1CC(=O)N2CCc3ccccc3C2C1 (centres unmarked)	100
O=c1[nH]c2ccccc2n1C1CCN(CCCC(c2ccc(F)cc2)c2ccc(F)cc2)CC1	117
CN1CCC[C@@H]1Cc1c[nH]c2ccc(CCS(=O)(=O)c3ccccc3)cc12	91
Cc1ccc(Sc2ccccc2N2CCNCC2)c(C)c1	152
CCCCN(CCCC)CC(O)c1cc(Cl)cc2c1-c1ccc(Cl)cc1/C2=C/c1ccc(Cl)cc1 (centres unmarked)	115
CN(C)C(=O)Oc1ccc[n+](C)c1	98.4
O=C(O[C@H]1C[C@H]2CC[C@@H](C1)[N+]21CCCC1)C(O)(c1ccccc1)c1ccccc1	89.6
Cc1cc(-c2ccc(/N=N/c3ccc4c(S(=O)(=O)O)cc(S(=O)(=O)O)c(N)c4c3O)c(C)c2)ccc1/N=N/c1ccc2c(S(=O)(=O)O)cc(S(=O)(=O)O)c(N)c2c1O	33
Nc1nc(F)nc2c1ncn2[C@@H]1O[C@H](COP(=O)(O)O)[C@@H](O)[C@@H]1O	128
O=c1[nH]c(=O)n([C@H]2C[C@H](O)[C@@H](CO)O2)cc1C(F)(F)F	89.6
CC(C(=O)O)c1ccc(-c2ccccc2)c(F)c1 (centres unmarked)	76.7
CN(C/C=C/C#CC(C)(C)C)Cc1cccc2ccccc12	94.6
O=C(O)Cc1ccccc1Nc1c(Cl)cccc1Cl	77
CCc1cc2c(cc1CC)CC(NC[C@H](O)c1ccc(O)c3[nH]c(=O)ccc13)C2	106
CCCCC(=O)O[C@H]1CC[C@H]2[C@@H]3CCc4cc(O)ccc4[C@H]3CC[C@]12C	77.7
Nc1ncn([C@H]2C[C@H](O)[C@@H](CO)O2)c(=O)n1	71
CN(C)CC/C=C1/c2ccccc2Sc2ccc(Cl)cc21	110
O=C1C(CC[S+]([O-])c2ccccc2)C(=O)N(c2ccccc2)N1c1ccccc1 (centres unmarked)	118
COc1ccccc1OCC(O)COC(N)=O (centres unmarked)	109

Sample 4
Target: DNA polymerase theta, ATPase domain (POLQ, Homo sapiens, UniProt O75417)
Chain of UniProt O75417 (whole entry, unmodified, looked up): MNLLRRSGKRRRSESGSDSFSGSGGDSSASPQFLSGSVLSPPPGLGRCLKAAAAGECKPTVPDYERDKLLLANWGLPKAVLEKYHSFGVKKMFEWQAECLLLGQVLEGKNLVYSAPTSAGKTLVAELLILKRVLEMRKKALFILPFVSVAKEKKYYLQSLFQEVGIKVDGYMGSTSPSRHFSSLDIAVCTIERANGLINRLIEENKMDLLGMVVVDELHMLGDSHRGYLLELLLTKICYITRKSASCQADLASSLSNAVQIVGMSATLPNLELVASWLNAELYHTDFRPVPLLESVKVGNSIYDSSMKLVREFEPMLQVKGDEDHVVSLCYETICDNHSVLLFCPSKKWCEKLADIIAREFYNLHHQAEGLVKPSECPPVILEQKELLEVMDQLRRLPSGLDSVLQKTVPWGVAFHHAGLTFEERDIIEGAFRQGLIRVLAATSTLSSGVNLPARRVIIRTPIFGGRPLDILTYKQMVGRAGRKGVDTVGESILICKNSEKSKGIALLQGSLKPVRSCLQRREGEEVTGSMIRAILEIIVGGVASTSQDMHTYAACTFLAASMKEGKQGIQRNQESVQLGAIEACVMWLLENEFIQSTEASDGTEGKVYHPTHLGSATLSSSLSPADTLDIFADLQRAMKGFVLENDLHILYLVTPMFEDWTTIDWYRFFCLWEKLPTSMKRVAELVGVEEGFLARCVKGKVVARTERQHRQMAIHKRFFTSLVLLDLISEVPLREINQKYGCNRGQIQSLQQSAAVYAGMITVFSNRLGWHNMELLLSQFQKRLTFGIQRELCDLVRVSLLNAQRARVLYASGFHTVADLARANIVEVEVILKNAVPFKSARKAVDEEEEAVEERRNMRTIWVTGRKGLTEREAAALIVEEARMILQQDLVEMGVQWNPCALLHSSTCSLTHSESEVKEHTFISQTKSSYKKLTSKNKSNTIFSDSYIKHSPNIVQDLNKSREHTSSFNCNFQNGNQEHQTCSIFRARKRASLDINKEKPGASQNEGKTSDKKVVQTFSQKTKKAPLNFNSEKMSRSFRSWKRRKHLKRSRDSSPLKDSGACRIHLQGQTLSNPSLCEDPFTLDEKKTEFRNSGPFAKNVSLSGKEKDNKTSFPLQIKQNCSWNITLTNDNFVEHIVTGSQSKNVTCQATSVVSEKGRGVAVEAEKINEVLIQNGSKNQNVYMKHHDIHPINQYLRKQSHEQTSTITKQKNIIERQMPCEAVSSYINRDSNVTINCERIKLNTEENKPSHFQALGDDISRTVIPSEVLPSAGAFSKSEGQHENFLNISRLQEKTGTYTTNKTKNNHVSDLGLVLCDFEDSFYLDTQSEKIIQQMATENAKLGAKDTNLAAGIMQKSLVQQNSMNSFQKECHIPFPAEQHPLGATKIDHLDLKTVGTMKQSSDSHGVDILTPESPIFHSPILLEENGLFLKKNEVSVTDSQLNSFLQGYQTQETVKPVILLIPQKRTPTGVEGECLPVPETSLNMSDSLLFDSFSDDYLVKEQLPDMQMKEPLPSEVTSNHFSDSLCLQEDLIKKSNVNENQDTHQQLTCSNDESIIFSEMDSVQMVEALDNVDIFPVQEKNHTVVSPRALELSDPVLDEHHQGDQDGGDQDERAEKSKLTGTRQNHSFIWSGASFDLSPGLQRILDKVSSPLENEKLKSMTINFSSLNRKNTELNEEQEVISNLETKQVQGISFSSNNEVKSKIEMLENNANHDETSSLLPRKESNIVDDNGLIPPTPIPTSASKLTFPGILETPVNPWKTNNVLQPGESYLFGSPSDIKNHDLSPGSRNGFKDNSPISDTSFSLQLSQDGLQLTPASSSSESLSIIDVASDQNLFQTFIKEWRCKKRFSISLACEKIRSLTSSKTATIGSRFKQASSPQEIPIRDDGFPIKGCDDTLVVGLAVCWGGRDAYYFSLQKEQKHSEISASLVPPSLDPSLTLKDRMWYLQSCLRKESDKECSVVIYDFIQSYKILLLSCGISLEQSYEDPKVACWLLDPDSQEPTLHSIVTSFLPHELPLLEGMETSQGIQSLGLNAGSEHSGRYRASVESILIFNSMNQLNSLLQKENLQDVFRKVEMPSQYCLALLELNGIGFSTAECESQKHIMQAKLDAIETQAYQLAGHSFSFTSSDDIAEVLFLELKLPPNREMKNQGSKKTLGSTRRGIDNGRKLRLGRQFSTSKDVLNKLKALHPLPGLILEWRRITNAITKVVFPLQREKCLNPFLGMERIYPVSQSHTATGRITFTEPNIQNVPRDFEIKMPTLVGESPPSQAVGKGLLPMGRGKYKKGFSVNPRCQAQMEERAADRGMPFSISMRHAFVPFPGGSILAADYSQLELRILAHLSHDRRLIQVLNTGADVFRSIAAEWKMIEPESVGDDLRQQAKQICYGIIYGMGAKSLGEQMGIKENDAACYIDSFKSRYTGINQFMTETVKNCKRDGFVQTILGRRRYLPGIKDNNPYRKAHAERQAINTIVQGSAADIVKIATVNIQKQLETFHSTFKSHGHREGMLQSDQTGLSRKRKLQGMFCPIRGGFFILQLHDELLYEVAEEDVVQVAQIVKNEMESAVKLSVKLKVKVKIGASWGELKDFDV
Observed: enzyme activity
Mode: inhibitor
Tested at: 77 µM
Relative to: untreated
SMILES	remaining activity [%]
C[N+]1(C)CCN(c2ccccc2)CC1	97.2
Cc1cccc(C(C)c2c[nH]cn2)c1C (centres unmarked)	103
NC(=O)CI	108
CN(C)CCc1ccc(O)cc1	94.4
CN(N=O)c1ccc(O)c(O)c1	52.4
CCN(CC)C(=O)c1ccc(C2=CC3(CCNCC3)Oc3cccc(O)c32)cc1	98
CNCCc1c[nH]c2ccc(O)cc12	98.6
CCC1(c2ccc(N)cc2)CCC(=O)NC1=O (centres unmarked)	92.1

Further values, each from its own experiment
SMILES	system	conditions	endpoint	result
CCC1C(c2ccccc2)NC(c2ccccc2)CC1(O)c1ccc(F)cc1 (centres unmarked)	human, microsomes or S9	2 µM, 0.5 h	remaining compound	83.9%
CN(N=O)C(=O)N[C@@H]1[C@@H](O)[C@H](O)[C@@H](CO)O[C@@H]1O	mice, STZ diabetic neuropathy	dose not given, 7 days after STZ	body weight	39 g and 30.4 g and 38 g and 33 g
CCOc1cc(=O)n2c(c1C(=O)N1CCC3(CC1)OCCO3)CCCCC2	human, microsomes or S9	2 µM, 0.5 h	remaining compound	91.5%
